Assay results collected from several papers.
Values joined by “and” are separate records of one study, mostly repeats; a detail may differ.
Spike glycoprotein: Spike glycoprotein (Severe acute respiratory syndrome coronavirus 2, UniProt P0DTC2)
rep main protease: Replicase polyprotein 1ab, main protease (rep, Severe acute respiratory syndrome coronavirus 2, UniProt P0DTD1)
Sequence of UniProt P9WHT9 (whole entry, looked up): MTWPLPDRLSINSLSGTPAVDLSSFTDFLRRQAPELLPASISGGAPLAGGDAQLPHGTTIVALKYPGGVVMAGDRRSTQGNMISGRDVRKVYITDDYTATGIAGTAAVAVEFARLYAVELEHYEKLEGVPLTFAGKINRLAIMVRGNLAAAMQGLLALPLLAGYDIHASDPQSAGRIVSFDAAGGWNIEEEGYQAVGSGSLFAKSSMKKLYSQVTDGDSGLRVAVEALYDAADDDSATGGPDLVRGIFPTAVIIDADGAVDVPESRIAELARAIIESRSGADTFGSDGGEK

Structure (SMILES) = O=C1c2c(O)cccc2C([C@@H]2O[C@H](CO)[C@@H](O)[C@H](O)[C@H]2O)c2cc(CO)cc(O)c21 (stereo partly shown); target or system = Spike glycoprotein; test = binding, BLI; quantity = kon; value = 427 M⁻¹ s⁻¹
Structure (SMILES) = O=C(N[C@@H]1Cc2ccccc2[C@H]1NC(=O)c1cc(O)ccc1[N+](=O)[O-])c1ccc2[nH]nnc2n1; target or system = rep main protease; test = enzyme activity, inhibitor; conditions = 5 µM, run 1; quantity = inhibition; value = 14.3%
Structure (SMILES) = CC[C@H](C)[C@H](NC(=O)[C@H](CC(C)C)NC(=O)[C@H](Cc1c[nH]c2ccccc12)NC(=O)[C@H](CCC(N)=O)NC(=O)[C@@H](NC(=O)[C@H](Cc1ccccc1)NC(=O)[C@H](C)NC(=O)[C@H](CCCCNC(=O)COCCOCCNC(=O)COCCOCCNC(=O)CC[C@H](NC(=O)CCCCCCCCCCCCCCCCCCC(=O)O)C(=O)O)NC(=O)[C@H](CCC(N)=O)NC(=O)[C@H](C)NC(=O)[C@@H](NC(=O)[C@H](CCCCN)NC(=O)[C@H](CC(=O)O)NC(=O)[C@H](CC(C)C)NC(=O)C(C)(C)NC(=O)[C@@H](NC(=O)[C@H](CO)NC(=O)[C@H](Cc1ccc(O)cc1)NC(=O)[C@H](CC(=O)O)NC(=O)[C@H](CO)NC(=O)[C@@H](NC(=O)[C@H](Cc1ccccc1)NC(=O)[C@@H](NC(=O)CNC(=O)[C@H](CCC(=O)O)NC(=O)C(C)(C)NC(=O)[C@@H](N)Cc1ccc(O)cc1)[C@@H](C)O)[C@@H](C)O)[C@@H](C)CC)[C@@H](C)CC)C(C)C)C(=O)N[C@@H](C)C(=O)NCC(=O)NCC(=O)N1CCC[C@H]1C(=O)N[C@@H](CO)C(=O)N[C@@H](CO)C(=O)NCC(=O)N[C@@H](C)C(=O)N1CCC[C@H]1C(=O)N1CCC[C@H]1C(=O)N1CCC[C@H]1C(=O)N[C@@H](CO)C(N)=O; test = measured: treatment-emergent medical device site pruritus; test system = healthy subjects; conditions = 1.5 mg, multiple ascending dose; quantity = subjects with adverse event; value = 0%
Structure (SMILES) = CC(C)=CCc1c(O)ccc(C(=O)/C=C/c2ccc(O)cc2)c1O; target or system = Spike glycoprotein; test = binding, BLI; quantity = kon; value = 3860 M⁻¹ s⁻¹
Structure (SMILES) = O=C(c1cccc(-c2n[nH]c(=O)[nH]2)c1)N1CCO[C@H](c2cn(-c3cccnc3)nn2)C1; target or system = rep main protease; test = enzyme activity, inhibitor; conditions = 5 µM, mean of runs; quantity = inhibition; value = 10.3%
Structure (SMILES) = CC(C)Cc1ccc([C@H](C)C(=O)O)cc1; target or system = rep main protease; test = reporter gene (Gaussia luciferase), inhibitor; conditions = 20 µM; quantity = inhibition; value = -0.132%
Structure (SMILES) = Cn1cnc(Cn2c(=O)[nH]/c(=N\c3cc4cn(C)nc4cc3Cl)n(Cc3cc(F)c(F)cc3F)c2=O)n1; test system = human, mild renal impairment; conditions = oral, 375 mg, decreased GFR TEAE, severe severity; quantity = patients with adverse event; value = 0%
Structure (SMILES) = CCCC[C@@H](C=O)NC(=O)[C@H](CC(C)C)NC(=O)OCc1ccccc1; target or system = rep main protease; test = reporter gene (mKate2), inhibitor; conditions = 20 µM; quantity = inhibition; value = 1.5%
Structure (SMILES) = COc1ccccc1-c1cccc(CN2CCCC(C(=O)NCCc3ccc(F)cc3)C2)c1 (stereo not shown); target or system = SARS-CoV-2; test = cytopathic effect, cell-based CPE; test system = USA_WA1/2020; conditions = round 1, 5-point dilution; quantity = AC50; value = 12.6 µM
Structure (SMILES) = CCc1c(C(=O)C(N)=O)c2c(OCC(=O)O)cccc2n1Cc1ccccc1; target or system = Daboia russelii venom phospholipase A2; test = enzyme activity, inhibitor; test system = GA population; conditions = 0.001 µM, with: NOB substrate; scale = baseline: venom alone; quantity = remaining activity; value = 94.2% and 93.8% and 99.5%
Structure (SMILES) = O=[N+]([O-])c1ccc(OP(=O)(O)O)cc1; target or system = Secreted effector protein (Yersinia pestis, UniProt O68720); test = substrate; quantity = Km; value = 600 µM
Structure (SMILES) = COc1cc2c(cc1O)[C@@H](Cc1ccc(O)c(Oc3ccc(C[C@@H]4c5cc(OC)c(OC)cc5CCN4C)cc3)c1)N(C)CC2; target or system = Spike glycoprotein; test = binding, biolayer interferometry; quantity = koff; value = 0.0426 s⁻¹
Structure (SMILES) = Cc1cc(N[C@H]2C[C@H]3CC[C@@H]2N(C(=O)c2cnc4[nH]cc(C)c4c2)C3)nc(-c2cccnc2)n1; target or system = rep main protease; test = enzyme activity, inhibitor; conditions = 5 µM, mean of runs; quantity = inhibition; value = 17.4%
Structure (SMILES) = Nc1ncnc2c([C@@H]3N[C@H](CO)[C@@H](O)[C@H]3O)c[nH]c12; target or system = Marburg virus; test = viral replication; test system = HeLa, Angola; conditions = 50 µM; quantity = inhibition; value = 95.3%
Structure (SMILES) = O=C(NC[C@@H]1CC2(CCOCC2)CN1C(=O)c1ccc2c(c1)C(=O)NC2)c1cccnn1; target or system = rep main protease; test = enzyme activity, inhibitor; conditions = 5 µM, run 2; quantity = inhibition; value = 9.9%
Structure (SMILES) = O=C(NC[C@H]1CN(c2ccc(N3CCOCC3=O)cc2)C(=O)O1)c1ccc(Cl)s1; target or system = rep main protease; test = reporter gene (mKate2), inhibitor; conditions = 20 µM; quantity = inhibition; value = -0.0674%
Structure (SMILES) = Nc1ccc(-c2nsc(=O)o2)cc1; target or system = Proteasome subunit beta, open-gate 20S proteasome (prcB, Mycobacterium tuberculosis, UniProt P9WHT9); test = enzyme activity, inhibitor; quantity = kinact/KI; value = 49 M⁻¹ s⁻¹
Structure (SMILES) = CC1=NN(c2ccccc2)C(=O)C1; target or system = rep main protease; test = reporter gene (mKate2), inhibitor; conditions = 20 µM; quantity = inhibition; value = -0.204%
Structure (SMILES) = Cc1ccc(Nc2ccnc(N3CCC(C(=O)NCCCc4ccccc4)CC3)n2)cc1; target or system = SARS-CoV-2; test = cytopathic effect, cell-based CPE; test system = USA_WA1/2020; conditions = round 2, 5-point dilution; quantity = AC50; value = 7.08 µM
